Results from different studies.
Compare with care: the assays were run in different laboratories.
Organism: Candida albicans

| Compound | test | system | setting | MIC |
| --- | --- | --- | --- | --- |
| CC(C)C[C@H](NC(=O)[C@H](Cc1c[nH]c2ccccc12)NC(=O)[C@H](CC(C)C)NC(=O)[C@@H](NC(=O)[C@H](CC(C)C)NC(=O)[C@H](CCCNC(=N)N)NC(=O)[C@@H](N)CCCNC(=N)N)[C@@H](C)O)C(=O)N[C@H](C(=O)N[C@@H](CC(C)C)C(=O)N[C@@H](CCCNC(=N)N)C(=O)N[C@@H](CCCNC(=N)N)C(N)=O)[C@@H](C)O | – | 56214, fluconazole-resistant isolate, RPMI MOPS | 48 h, 37 °C | 4 µM |
| CC(=O)N1CCN(c2ccc(OCC3COC(Cn4ccnc4)(c4ccc(Cl)cc4Cl)O3)cc2)CC1 (stereo not shown) | broth microdilution | 56214 fluconazole-resistant, RPMI-1640 | 48 h, 30 °C | 128 µM |
| C[C@H](NC(=O)[C@H](CCCNC(=N)N)NC(=O)[C@H](Cc1c[nH]c2ccccc12)NC(=O)[C@H](CCCNC(=N)N)NC(=O)[C@H](Cc1c[nH]c2ccccc12)NC(=O)[C@H](Cc1c[nH]c2ccccc12)NC(=O)[C@H](Cc1c[nH]c2ccccc12)NC(=O)[C@H](CCCNC(=N)N)NC(=O)[C@H](Cc1c[nH]c2ccccc12)NC(=O)[C@H](CCCNC(=N)N)NC(=O)CN)C(N)=O | broth microdilution | 17546, RPMI 1640-MOPS | 48 h, 30 °C | 8 µM |
| CC[C@H](C)[C@H](NC(=O)[C@@H](NC(=O)[C@H](Cc1c[nH]c2ccccc12)NC(=O)[C@H](Cc1c[nH]c2ccccc12)NC(=O)[C@H](CCCNC(=N)N)NC(=O)[C@@H](N)CCCNC(=N)N)[C@@H](C)O)C(=O)N[C@H](C(N)=O)C(C)C | – | – | – | > 512 µg/mL |
| CC[C@H](C)[C@H](NC(=O)CN)C(=O)N[C@@H](C)C(=O)N[C@@H](CC(=O)O)C(=O)N[C@@H](C)C(=O)N[C@H](C(=O)N[C@@H](CCCCN)C(=O)N[C@@H](C)C(=O)N[C@H](C(=O)N[C@@H](C)C(=O)N[C@@H](CCCCN)C(=O)N[C@@H](C)C(=O)N[C@@H](CC(C)C)C(=O)NCC(N)=O)[C@@H](C)CC)[C@@H](C)CC | – | ATCC 90029, RPMI MOPS | 24 h, pH 7.0, 33 °C | 128 µg/mL |
| CC[C@H](C)[C@H](NC(=O)[C@H](CC(C)C)NC(=O)[C@@H](NC(=O)[C@H](Cc1c[nH]c2ccccc12)NC(=O)[C@H](Cc1c[nH]c2ccccc12)NC(=O)[C@H](CCCNC(=N)N)NC(=O)[C@@H](N)CCCNC(=N)N)[C@@H](C)O)C(N)=O | – | – | – | 32 µg/mL |
| CC[C@H](C)[C@H](NC(=O)CN)C(=O)N[C@@H](C)C(=O)N[C@@H](CCCCN)C(=O)N[C@@H](C)C(=O)N[C@H](C(=O)N[C@@H](CCCCN)C(=O)N[C@@H](CCCCN)C(=O)N[C@H](C(=O)N[C@@H](C)C(=O)N[C@@H](CCCCN)C(=O)N[C@@H](C)C(=O)N[C@@H](CC(C)C)C(=O)NCC(N)=O)[C@@H](C)CC)[C@@H](C)CC | – | ATCC 90029, RPMI MOPS | 24 h, pH 7.0, 33 °C | 64 µg/mL |
| CC[C@H](C)[C@H](NC(=O)CN)C(=O)NCC(=O)N[C@@H](C)C(=O)N[C@H](C(=O)N[C@@H](CC(C)C)C(=O)N[C@@H](CCCCN)C(=O)N[C@H](C(=O)N[C@@H](CC(C)C)C(=O)N[C@H](C(=O)N[C@H](C(=O)NCC(=O)N[C@@H](CC(C)C)C(=O)N1CCC[C@H]1C(=O)N[C@@H](C)C(=O)N[C@@H](CC(C)C)C(=O)N[C@H](C(=O)N[C@@H](CO)C(=O)N[C@@H](Cc1c[nH]c2ccccc12)C(=O)N[C@H](C(=O)N[C@@H](CCCCN)C(=O)N[C@@H](CCCNC(=N)N)C(=O)N[C@@H](CCCCN)C(=O)N[C@@H](CCCNC(=N)N)C(=O)N[C@@H](CCC(N)=O)C(=O)N[C@@H](CCC(N)=O)C(N)=O)[C@@H](C)CC)[C@@H](C)CC)[C@@H](C)O)[C@@H](C)O)C(C)C)C(C)C | broth microdilution | CGMCC 2.209, RPMI 1640-MOPS | 48 h, 30 °C | 4 µM |
| CC[C@H](C)[C@H](NC(=O)[C@H](Cc1c[nH]c2ccccc12)NC(=O)[C@@H](NC(=O)[C@@H](NC(=O)[C@@H](NC(=O)[C@H](CCCNC(=N)N)NC(=O)[C@@H](N)CCCNC(=N)N)[C@@H](C)CC)[C@@H](C)O)[C@@H](C)CC)C(=O)N[C@H](C(=O)N[C@H](C(=O)N[C@@H](CCCNC(=N)N)C(=O)N[C@@H](CCCNC(=N)N)C(N)=O)[C@@H](C)CC)[C@@H](C)O | – | CGMCC 2.209, RPMI 1640 MOPS-buffered | 48 h, 37 °C, tested up to 128 µM | 2 µM |
| C#Cc1ccc(O)c(C=NNC(=O)c2ccc(Br)cc2Br)c1 | – | A39 | 48 h | 16 µg/mL |
| CC(C)C[C@H](NC(=O)[C@H](CCCNC(=N)N)NC(=O)[C@H](Cc1c[nH]c2ccccc12)NC(=O)[C@H](CCCNC(=N)N)NC(=O)[C@H](Cc1c[nH]c2ccccc12)NC(=O)[C@H](Cc1c[nH]c2ccccc12)NC(=O)[C@H](Cc1c[nH]c2ccccc12)NC(=O)[C@H](CCCNC(=N)N)NC(=O)[C@H](Cc1c[nH]c2ccccc12)NC(=O)[C@@H](N)CCCNC(=N)N)C(N)=O | broth microdilution | 14936, RPMI 1640-MOPS | 48 h, 30 °C | 8 µM |
| CC[C@H](C)[C@H](NC(=O)CN)C(=O)NCC(=O)N[C@@H](C)C(=O)N[C@H](C(=O)N[C@@H](CC(C)C)C(=O)N[C@@H](CCCCN)C(=O)N[C@H](C(=O)N[C@@H](CC(C)C)C(=O)N[C@H](C(=O)N[C@H](C(=O)NCC(=O)N[C@@H](CC(C)C)C(=O)N1CCC[C@H]1C(=O)N[C@@H](C)C(=O)N[C@@H](CC(C)C)C(=O)N[C@H](C(=O)N[C@@H](CO)C(=O)N[C@@H](Cc1c[nH]c2ccccc12)C(=O)N[C@H](C(=O)N[C@@H](CCCCN)C(=O)N[C@@H](CCCNC(=N)N)C(=O)N[C@@H](CCCCN)C(=O)N[C@@H](CCCNC(=N)N)C(=O)N[C@@H](CCC(N)=O)C(=O)N[C@@H](CCC(N)=O)C(N)=O)[C@@H](C)CC)[C@@H](C)CC)[C@@H](C)O)[C@@H](C)O)C(C)C)C(C)C | broth microdilution | 14936, RPMI-1640 | 48 h, 30 °C | 4 µM |
| N=C(N)NCCC[C@H](NC(=O)[C@H](Cc1c[nH]c2ccccc12)NC(=O)[C@H](CCCNC(=N)N)NC(=O)[C@H](Cc1c[nH]c2ccccc12)NC(=O)[C@H](Cc1c[nH]c2ccccc12)NC(=O)[C@H](Cc1c[nH]c2ccccc12)NC(=O)[C@H](CCCNC(=N)N)NC(=O)[C@H](Cc1c[nH]c2ccccc12)NC(=O)[C@@H](N)CCCNC(=N)N)C(N)=O | broth microdilution | CGMCC 2.209, RPMI 1640-MOPS | 48 h, 30 °C, with: NH4Cl 6 µM | 4 µM |
| CCCCCCC[C@@H]1CC(=O)N[C@H](CC(C)C)C(=O)N[C@@H](CO)C(=O)N[C@@H]([C@@H](C)O)C(=O)N[C@H](Cc2ccccc2)C(=O)N[C@@H]([C@@H](C)CC)C(=O)O1 | fungal growth, XTT | SC5314 | – | > 100 µM |
| C#Cc1cccc(C=NNC(=O)c2ccc(Br)c(Br)c2)c1O | – | A39 | 48 h | 4 µg/mL |
| OC(Cn1cncn1)(Cn1cncn1)c1ccc(F)cc1F | broth microdilution | 14936, RPMI 1640-MOPS | 48 h, 30 °C | 32 µM |

A few entries again:
| Compound | test | system | setting | MIC |
| --- | --- | --- | --- | --- |
| CC[C@H](C)[C@H](NC(=O)CN)C(=O)NCC(=O)N[C@@H](C)C(=O)N[C@H](C(=O)N[C@@H](CC(C)C)C(=O)N[C@@H](CCCCN)C(=O)N[C@H](C(=O)N[C@@H](CC(C)C)C(=O)N[C@H](C(=O)N[C@H](C(=O)NCC(=O)N[C@@H](CC(C)C)C(=O)N1CCC[C@H]1C(=O)N[C@@H](C)C(=O)N[C@@H](CC(C)C)C(=O)N[C@H](C(=O)N[C@@H](CO)C(=O)N[C@@H](Cc1c[nH]c2ccccc12)C(=O)N[C@H](C(=O)N[C@@H](CCCCN)C(=O)N[C@@H](CCCNC(=N)N)C(=O)N[C@@H](CCCCN)C(=O)N[C@@H](CCCNC(=N)N)C(=O)N[C@@H](CCC(N)=O)C(=O)N[C@@H](CCC(N)=O)C(N)=O)[C@@H](C)CC)[C@@H](C)CC)[C@@H](C)O)[C@@H](C)O)C(C)C)C(C)C | broth microdilution | 14936, RPMI-1640 | 48 h, 30 °C | 4 µM |
